Experimental data of several laboratories.
Values joined by “and” are separate records of one study, mostly repeats; a detail may differ. ± marks the error that the study gave. In brackets after ≈: the same amount, converted by molar mass.

N#Cc1ccc(-c2c(-c3ccccn3)nc3n2CCC3)cc1C(F)(F)F — IC50 (Leishmania infantum; macrophages, MHOM/MA(BE)/67/ITMAP263, amastigote): 25400 nM and 27900 nM
C=CC(=O)ON=C1C=CC(=C(C#N)c2ccccc2)C=C1 — MFC (Candida parapsilosis; broth dilution; ATCC 22099; 48 h, 37 °C): 32 µg/mL (≈ 116 µM)
O=c1c(O[C@@H]2O[C@H](CO)[C@H](O)[C@H](O)[C@H]2O)c(-c2ccc(O)c(O)c2)oc2cc(O)cc(O)c12 — IC50 (human immunodeficiency virus 1; viral replication; TZM-bl cells, NL4-3 (CXCR4-tropic); 48 h): > 100000 nM
CC(C)n1ncc2c(C(=O)NCC3(C)CNC3)cc(C3CC3)nc21 — cell protection (Enterovirus D68; cytopathic effect; RD, US/IL/14-18956; 500 nM): 90.4% and 91.3% and 95.2%
Cc1ccc(C(C)C)c(OC2=C(Cl)C(=O)c3ccccc3C2=O)c1 — zone of inhibition (Bacillus cereus; MTCC 430; 10 µg/mL): 21 mm
Nc1nc(-c2ccccc2)nc2[nH]nc(Nc3ccc(C(F)(F)F)cc3)c12 — clinical score (coxsackievirus B3; 31-1-93, NMRI mice, CVB3 chronic myocarditis; oral, 100 mg/kg twice daily, day 7, dosed days 0 to 6, score scale 0 to 7; direction not given): 0.1
COc1cc2nnn(S(=O)(=O)c3ccc(N(C)C)cc3)c2cc1OC — selectivity index (Leishmania infantum; intracellular amastigote growth; U-937 macrophages and HeLa; baseline: IC50 HeLa over IC50 amastigotes): 1.6
Brc1ccc(N/N=C/c2ccc(-c3ccc(/C=N/Nc4ccc(Br)cc4)cc3)cc2)cc1 — antifungal activity (Candida and Aspergillus; concentration not given, strain panel): inactive
Nc1ncnc2c1ncn2[C@@H]1O[C@H](CSCc2ccc3ccccc3c2)[C@@H](O)[C@H]1O — inhibition (Murine coronavirus; viral replication, outcome no inhibition; A59; 200 µM): no inhibition
C#C[C@]1(O)CC[C@H]2[C@@H]3CCC4=CC(=O)CC[C@@H]4[C@H]3C(=C)C[C@@]21CC — inhibition (THP-1; pyroptotic LDH release; 2 µM, 40 min, added: LPS then nigericin): -8.51%
c1ccc(-c2nc3n(c2-c2ccc4sccc4c2)CCC3)nc1 — IC50 (Leishmania infantum; macrophages, MHOM/MA(BE)/67/ITMAP263, amastigote): 540 nM and 170 nM
Cc1cc(C)c2cc(C(=O)NC3CCCCCCC3)[nH]c2c1 — selectivity index (Mycobacterium abscessus; THP-1; baseline: THP-1 IC50 over MIC): > 237
COc1cccc(-c2nc3ccccn3c2Nc2ccc(F)cc2)n1 — IC50 (Leishmania infantum; macrophages, MHOM/MA(BE)/67/ITMAP263, amastigote): > 64000 nM
OC(Cn1cncn1)(Cn1cncn1)c1ccc(F)cc1F — zone of inhibition (Alternaria alternata; ITCC 4522; 10 µg/mL): 23 mm
CCOC(=O)CNC(=O)CO/N=c1\cc2n(-c3ccc(Cl)cc3)c3ccccc3nc-2cc1Nc1ccc(Cl)cc1 — MIC (Mycobacteroides abscessus; bacterial growth; ATCC 19977): > 30 µM
Cc1ccc(-c2c(-c3ccccn3)nc3n2CCC3)cc1 — IC50 (Leishmania infantum; macrophages, MHOM/MA(BE)/67/ITMAP263, amastigote): 630 nM and 320 nM
O=c1oc2c(O)c(O)cc3c(=O)oc4c(O)c(O)cc1c4c23 — cell surface hydrophobicity (Streptococcus gordonii; ATCC 51656; MIC; baseline: control): decreased
Cc1ccc2nc(-c3ccccc3)c(CNc3ccc(F)cc3)n2c1 — IC50 (Leishmania infantum; intramacrophage amastigotes, MHOM/MA(BE)/67/ITMAP263): > 64000 nM
C[C@@H]1[C@H]2[C@H](O[C@@H]3O[C@H](CO)[C@@H](O)[C@H](O)[C@H]3O)OC=C(C(=O)O)[C@H]2C[C@@H]1O — inhibition (THP-1; pyroptotic LDH release; 2 µM, 40 min, added: LPS then nigericin): 41.8%
Cc1cccc(-c2c(-c3ccccn3)nc3n2CCC3)c1 — IC50 (Leishmania infantum; macrophages, MHOM/MA(BE)/67/ITMAP263, amastigote): 670 nM and 540 nM
CC(C)c1ccc(/C=C2\N=C(SCc3ccc([N+](=O)[O-])cc3)N(c3ccccc3)C2=O)cc1 — inhibition zone diameter (Bacillus cereus; ATCC 14579; concentration not given): 12 ± 0.52 mm
